Results collected from several papers.
Numbered parts are unrelated; each lists some results of a single study.

Block 1
Target: Phosphate system positive regulatory protein PHO4, full length, GST-tagged (PHO4, Saccharomyces cerevisiae, UniProt P07270, residues 1-312)
Method: competition protein-binding microarray
Form: double-stranded DNA, one strand shown
Medium: in vitro
Concentration: 2 µM
Setting: whole 60-bp probe, lowest competitor level
With: Cbf1 competitor, 0.05 µM
Reading: higher = stronger binding
All sequences stand within: … GTCTTGATTCGCTTGACGCTGCTG
Residues (chain): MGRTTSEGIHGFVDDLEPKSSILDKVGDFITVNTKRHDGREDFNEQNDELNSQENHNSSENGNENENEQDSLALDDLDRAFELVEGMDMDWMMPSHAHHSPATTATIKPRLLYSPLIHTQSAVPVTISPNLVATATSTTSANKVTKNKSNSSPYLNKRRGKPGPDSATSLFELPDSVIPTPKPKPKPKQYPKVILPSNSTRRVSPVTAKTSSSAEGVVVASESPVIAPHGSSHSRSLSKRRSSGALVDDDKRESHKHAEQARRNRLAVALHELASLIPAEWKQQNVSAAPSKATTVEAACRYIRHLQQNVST
| Sequence | fluorescence intensity [a.u.] |
| --- | --- |
| CTAACGAAGGTTTGTAGAGTGGGTGACAAGCCAAGT | 3730 |
| TCTTGTTACATCCGTCACGGCATTCCAGCTGTAAAA | 4210 |
| GTCTTGTCTCATTGTCACTAAACTTTCCCCACTTCA | 3960 |
| AGCCAGAAAATATACCATGTGTGAAAATAGCGATAA | 8140 |
| CTAACGAAGGTTTTTCACGTGAGCTACAAGCCAAGT | 9930 |
| CTTTCCCGATCTTTTCACGTGGGCTTAGCACATTTG | 13800 |
| GTCTTGTCTCATTGAACCGTGGGTGTCCCCACTTCA | 7300 |
| CTTCTGTAAATTTGCACGGTGGGTGGACGCGCCCCG | 6610 |
| CGGGGTTAAGTTTGTAATGTGGGTGGCTTGCAGCAG | 5330 |
| AGTTCTCGGACTTTTGACGTGCCAGTGCAATTATCC | 4890 |
| ATTCTTGGTACTTTAGTCGTGATTGTTTGACATGCC | 5280 |
| TTTATCGGTGCCGGCCACGTGGGTACCTCTTGCGAA | 19600 |
| CTGTATGTGTGGCGTCACAAATTAGGGGACTCTGGC | 5720 |
| CTTCTGTAAATTTGTTGCGTGGGTGGACGCGCCCCG | 6780 |
| AGGACGAGAAACAAGCACATGATGTGTGTCGAAAAA | 8860 |
| CTTCTGTAAATTTGCACAGTGGGTGGACGCGCCCCG | 3610 |
| AAATTACTAAGTTTCCACGTGTTTTACCCCGTATGA | 16200 |
| CTTCTGTAAATTTGAGCTGTGGGTGGACGCGCCCCG | 3740 |
| GCCTGGGTGGCGGGCTATGTGGTGAATGCAGAGGGT | 5720 |
| CTTTCCCGATCTTGGGTCGTGGGTGTAGCACATTTG | 9420 |
| TGCGCAACAACTTGCGCAGTGGGTGTATGTCTAGAA | 5130 |
| CGGGGTTAAGTTTGCCGAGTGGGTGGCTTGCAGCAG | 4710 |
| CTAACGAAGGTTTGTCAAGTGGGTGACAAGCCAAGT | 3420 |
| TGGAGTTGTAAACGACATGTGAACCCTTAACACCAA | 5790 |
| AAATTACTAAGTTGTATTGTGGGTGACGCCGTATGA | 4250 |

Block 2
Target: RNA binding protein fox-1 homolog 2, RRM domain, GST-SBP tag (RBFOX2, Homo sapiens, UniProt O43251-10, residues 100-194)
Method: RNA Bind-n-Seq
Form: RNA
Medium: in vitro
Concentration: 365 nM
Setting: natural RNA segment, single round, ends assumed
Reference: no-protein control
Reading: higher = stronger binding
All sequences stand within: GGGAGUUCUACAGUCCGACGAUC … UGGAAUUCUCGGGUGCCAA
Construct (chain): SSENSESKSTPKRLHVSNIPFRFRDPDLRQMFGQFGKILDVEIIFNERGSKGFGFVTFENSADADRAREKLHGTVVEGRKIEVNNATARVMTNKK
| Sequence | RBNS enrichment (R) |
| --- | --- |
| AAGACACACAGCAGCAAUGACCCCUCUCUAGGCCUGUCGCCUCCCUCCGCCUCCCGACCAGAGGGGUCCCUCAUGCCUGGCUGGCAGCCUCCUGGCAAGUGAGAAAGCCC | 0.412 |
| GAGGAUAGCAGGCUGGACUAUUGGUGGGCACCUUUCAAGCCCAGGGCUACUGUUUGUCCUGUGGCAGCCGGCUACAGUCUCGUCUGAGUGGCCUCAUCUGGACCCUUCCU | 0.268 |
| UACACCUGUGUGCUUUUCUAGAAAAAGCUGCUAAUGGCUGCAACACUAAUCAUGAACACGUUUUUGCCAGUUUCAAUCAAGUCAGAGGCAUUUAAUAAAAUUAUCUACAC | 0.466 |
| CUUACAGAUUUUUCCUUCCCCAGCUUGUGUCCACCCCUGUGCCAGGAGAGGUAGCACCAUCUCCUGGGACCAUCAAAGAGUGGGCUGGAGUGGGGACAGUGGACAGAGCA | 0.292 |
| UCUGGGCUUUCCUUUGCCCUCAGUUUUUCACAGGUAGGUAGUAGCCAUGGAGGGCUGAAGCCCAGGCUCUCCUUACUCUCUGGAGUGUGAAGGUAGGGGUGAGCUCGUCU | 0.311 |
| AAUUUUUUGCUUCUGGGGACUUGAGUAUUUUUAAAUGUUCUUAAAAUUAUAUGAAUCUACCCAGAAUGUAGAUGUCAAAAUGUAAUUAGAGGCCCCGUGCAGUGGCUCAC | 0.505 |
| GAUUGAUUGAGCCUGCGAGGCCAAGGCUGCAGCAGGCUGUGAUUGCACCACUGCACUUCAGCUUGGGCAACAGAGCAAGACCCUGUCUCCGAAACAAAUAAAAAAUACUG | 0.354 |
| AGGUAUAUUAGAGCCACUUGAAAGCAUGAAGACCAGUUAUAUGGAAACAGGUUUCUCUCAGUGGCACAUUUUGCUUUUUCUUAGCCCUCAAAUACAUUGCCUCGGCAUGA | 0.811 |
| AAUAAAGCUGUCUGACCCAGGAAAAAAGGAACUAUACAACAUAGUGGAGUCUUGUGUACUAAAGUGCUAUCCGCUGGGCCUUUGGGAUUGAAGCAGUAGAAAGCGAAAAG | 0.48 |
| CUCCACUAACCUUUUCUCUCCAACUGUAAACACAGAGACAGCUUUGGGAAUAAGCCAAAAACAGGGUGAUCUCAUUAGAUUUUGAAGAUAUAUGACUCCUUUGGGCUACA | 0.462 |
| UUCGACUACUGCUCCUGUGGCAGGAGGCUUUGGGUGGCUCACUACUGAACACAUGUGUAUGAUACUAAAGACGGUAUUAAAAUGGAGCGACGUUUAUUUCAUCUCUUGUU | 0.864 |
| AUAUUUGUAACUGGUACAAGAUGAAGGACAGCAGCUUUCCAUCCCUAGUUCAGAGCCCCCGUUCCCCAGGGUCCUGUGGGCUGAGCGGCUGGGGCUGGGGCUGCCCACGU | 0.39 |

Block 3
Target: Histone acetyltransferase KAT6A, winged helix 1, GST fusion (KAT6A, Homo sapiens, UniProt Q92794, residues 1-85)
Method: protein binding microarray
Form: double-stranded DNA, one strand shown
Medium: in vitro
Concentration: not given
Setting: 8-mer, flanks averaged, mean of 2 arrays, mostly near background
Reference: not given
Reading: higher = stronger binding
Construct (chain): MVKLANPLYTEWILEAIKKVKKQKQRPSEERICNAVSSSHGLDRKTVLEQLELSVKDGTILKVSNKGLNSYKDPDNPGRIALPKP
| Sequence | E-score |
| --- | --- |
| CCACCACG | 0.0213 |
| ATTTCGCA | -0.0419 |
| AATGGATG | -0.229 |
| ATCGCGAT | 0.139 |
| AAATCCGT | 0.0724 |
| ACATTCAG | -0.0426 |
| GTATTGAC | 0.0624 |
| CCGCAGTC | 0.268 |
| CTGCGAGA | -0.12 |
| ATCGTACC | -0.0786 |
| CTTTTATC | -0.137 |
| CCTTACGC | 0.136 |
| TCCCCTAA | -0.141 |
| AGAACACC | 0.00628 |
| ATATCCTA | 0.00607 |
| GAAGACCC | -0.0978 |
| GTACATGA | -0.0114 |
| GACCCGAA | 0.0198 |
| CAATACAC | -0.0315 |
| AAGAATCA | -0.219 |
| CCGGACGG | 0.41 |
| AGATCGCA | -0.0881 |
| CAAGGTCG | -0.0805 |
| CCCTTCAC | -0.0258 |

Block 4
Target: Ras GTPase-activating protein-binding protein 1, RRM domain (G3BP1, Homo sapiens, UniProt Q13283)
UniProt Q13283, sequence (whole entry, looked up): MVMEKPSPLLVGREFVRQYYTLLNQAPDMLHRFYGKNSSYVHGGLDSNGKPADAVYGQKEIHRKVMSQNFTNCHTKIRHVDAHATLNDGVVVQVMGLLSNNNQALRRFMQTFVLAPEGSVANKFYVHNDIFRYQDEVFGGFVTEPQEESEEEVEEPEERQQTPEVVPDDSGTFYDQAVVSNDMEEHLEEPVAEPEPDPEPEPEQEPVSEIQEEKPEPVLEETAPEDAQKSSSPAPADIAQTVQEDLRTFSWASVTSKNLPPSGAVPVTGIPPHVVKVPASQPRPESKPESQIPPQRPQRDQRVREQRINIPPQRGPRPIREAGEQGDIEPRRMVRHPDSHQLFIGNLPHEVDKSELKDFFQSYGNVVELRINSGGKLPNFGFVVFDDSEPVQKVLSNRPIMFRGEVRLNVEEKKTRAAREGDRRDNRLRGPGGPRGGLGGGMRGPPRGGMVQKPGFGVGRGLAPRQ
Method: RNA Bind-n-Seq
Form: RNA
Medium: in vitro
Concentration: 1 µM
Setting: whole 134-nt RNA, ends assumed
With: 150 mM KCl
Reference: input library
Reading: higher = stronger binding
All sequences stand within: GGGAGUUCUACAGUCCGACGAUC … UGGAAUUCUCGGGUGUCAAGG
| Sequence | log2 enrichment |
| --- | --- |
| UCCUGUGCUACACAUCGUAUGUACCGAAUCGGGGAAAAAAAGGGGAGGGGUUUUUGGGGAAAGUAUUAUGUUACGCCGUUCGGAUCUGCA | 0.671 |
| UGGGAUGUGGAUUUUGUUUAUUUUUUUAGCUCAUUUCCAGGGGUGGGAAUUUUUUUUUAAUAUGUGUCAUGAAUAAAGUUGUUUUUGAAA | 2.21 |
| CACAGACAACACGCACCCACACAGACACAGAGGGAAGGGGUUGGGAUGGGGACAGGGUGAAAAGCAGGGCGGGGUAGGACCCCAGCCCCU | -0.151 |
| UGGGAGGUGGAUUUUGUUUAUUUUUUUAGCUCAUUUCCAGGGGUGGGAAAUUUUUUUUAAUAUGUGUCAUGAAUAAAGUUGUUUUUGAAA | 1.23 |
| ACCAUGCAGGUGGGCAUCUUUGGGAAGUGGGGCAAGGGGGGGAUAGGGAGGGGGGUAACGCUUUGGGAACAGGUGGUCCCAGGUCGUUUC | 0.928 |
| AAGUCCUGUGCUACACAUCGUAUGUACCGAAUCGGGGAAAAGGGGAAAAGGAAAAGGAAAGUAUUAUGUUACGCCGUUCGGAUCUGCACU | -0.15 |
| UAUCUUAUCUACACAUGGGGGACUGAAGAGUUCGAGAGAUCCAAGAGGAAGAAUCCAGCUGCCUAUGAAAAUGACAAAUGAGCAACGCAU | -0.00314 |
| UGGCCCUGGUGGCAUGCGGGGAGGAAGAGGUGGCCUUAUGGAUCGUGGUGGUCCCGGUGGAAUGUUCAGAGGUGGCCGUGGUGGAGACAG | 1.02 |
| UGUGCUACACAUCGUAUGUACCGAAUCGGGGUUUUUUUGGGGAAAAAGGGGAAAAAAAGGGGAAAGUAUUAUGUUACGCCGUUCGGAUCU | 0.856 |
| AAAAAAAGUGUGUAUUAGGAGGAGAGAGAGGAAAAAAAGAGGAAAGAAGGAAAAAAAAAAGAAUUAAAAAAAAAAAAAAGAAAAACAGAA | -0.0836 |
| AAGUCCUGUGCUACACAUCGUAUGUACCGAAUCGGAAAAAGGUUUUUGGUUUUUGGAAAGUAUUAUGUUACGCCGUUCGGAUCUGCACUU | -0.396 |
| GCAGGAAGUAAAAACAAAUGGAAAUGUUUCGGAUAGUGGCAGGGGUGGGGGUUGCUAAGGAAAGGGUGGGAUGGGAGUGGGUAAAGAGUU | 0.872 |
| UGGGAGGUGGAUUUUGUUUAUUUUUUUAGCUCAUUUCCAGGGGUGGGAAUUUUUUUUCAAUAUGUGUCAUGAAUAAAGUUGUUUUUGAAA | 1.66 |
| CCUGUGCUACACAUCGUAUGUACCGAAUCGGGGAAAAAAAGGGGAAAGGGGAAAAAGGGGAAAGUAUUAUGUUACGCCGUUCGGAUCUGC | 0.778 |

Block 5
Target: Sal-like protein 4, full length isoform A (SALL4, Homo sapiens, UniProt Q9UJQ4, residues 1-1053)
UniProt Q9UJQ4, sequence (whole entry, looked up): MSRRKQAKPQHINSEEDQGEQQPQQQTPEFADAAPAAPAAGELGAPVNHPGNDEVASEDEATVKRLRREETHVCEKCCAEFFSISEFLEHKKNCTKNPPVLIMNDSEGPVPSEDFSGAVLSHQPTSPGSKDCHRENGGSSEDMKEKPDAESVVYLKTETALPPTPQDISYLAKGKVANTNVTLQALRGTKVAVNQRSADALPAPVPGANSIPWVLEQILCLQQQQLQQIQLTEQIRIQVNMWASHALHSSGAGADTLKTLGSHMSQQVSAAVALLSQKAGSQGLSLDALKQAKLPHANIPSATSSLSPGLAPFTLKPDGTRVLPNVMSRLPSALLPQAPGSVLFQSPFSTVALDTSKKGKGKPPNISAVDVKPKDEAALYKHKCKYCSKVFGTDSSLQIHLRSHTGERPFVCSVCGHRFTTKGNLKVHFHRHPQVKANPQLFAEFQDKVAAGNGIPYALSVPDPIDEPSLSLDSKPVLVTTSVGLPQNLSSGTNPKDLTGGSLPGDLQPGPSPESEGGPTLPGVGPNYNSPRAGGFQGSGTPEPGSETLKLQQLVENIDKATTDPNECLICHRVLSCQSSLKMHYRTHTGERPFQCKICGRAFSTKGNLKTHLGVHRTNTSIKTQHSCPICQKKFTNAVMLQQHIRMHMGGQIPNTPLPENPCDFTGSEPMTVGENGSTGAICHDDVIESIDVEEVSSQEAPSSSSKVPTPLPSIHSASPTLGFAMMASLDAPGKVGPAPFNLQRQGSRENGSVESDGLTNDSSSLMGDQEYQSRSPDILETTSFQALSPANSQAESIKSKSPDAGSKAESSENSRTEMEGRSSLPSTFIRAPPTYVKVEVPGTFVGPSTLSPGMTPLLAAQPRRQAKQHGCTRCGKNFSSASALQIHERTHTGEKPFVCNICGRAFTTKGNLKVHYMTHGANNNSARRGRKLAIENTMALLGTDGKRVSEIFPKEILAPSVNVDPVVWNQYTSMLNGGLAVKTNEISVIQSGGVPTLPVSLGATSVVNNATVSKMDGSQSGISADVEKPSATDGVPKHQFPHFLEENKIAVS
Method: universal PBM
Form: double-stranded DNA, one strand shown
Medium: in vitro
Concentration: 600 nM
Setting: 8-mer, flanks averaged, mean of replicates
Reading: higher = stronger binding
| Sequence | E-score |
| --- | --- |
| GCCTCGTA | -0.0346 |
| ACAATAGC | 0.152 |
| CGGAGGGC | -0.284 |
| GTCGCGCA | -0.226 |
| ACGGAATG | -0.057 |
| ACCTCCAC | -0.142 |
| ATTAGAAT | 0.294 |
| CAACCCAC | -0.163 |
| CCTCCGCG | -0.335 |
| ACCGTGCC | -0.114 |
| ACTCGGTA | -0.00505 |
| AGCGAAAG | 0.0307 |
| CTCCCTTA | -0.0572 |
| CCCTAAGG | -0.189 |
| GTCGAGAC | -0.0121 |
| ACCGCCTG | -0.317 |
